Published values from different studies.
Each line is one published result; not all experiments were run side by side. Several values in a cell are separate wells, animals, samples, runs or records. ± gives the spread as reported.

COc1ccc2c(C(=O)c3cc(OC)c(OC)c(OC)c3)c(-c3ccc(OC)c(OC(C)(C)c4ccc([N+](=O)[O-])s4)c3)[nH]c2c1 — non-enzymatic parent drug release (phosphate buffer; concentration not given, 7.4 h, pH 7.4): 5.6%
O=C1CC[C@H](N2Cc3cc(N4CCN(CC5CCN(c6ccc([C@@H]7c8ccc(O)cc8CC[C@@H]7c7ccccc7)cc6)CC5)CC4)ccc3C2=O)C(=O)N1 — participants with TEAE abdominal pain (human; oral, 200 mg, added: rosuvastatin 10 mg): 0%
N#CCNC(=O)c1ccc(-c2ccnc(Nc3ccc(N4CCOCC4=O)cc3)n2)cc1 — Cmax increase (healthy volunteers, plasma; dose not given, added: rifampin multiple-dose; baseline: with single-dose rifampin): 31%
O=C(Nc1cnccc1Cl)N1CCN(Cc2ccc3c(c2)OC(F)(F)O3)CC1 — AUC(0-24) (healthy young men, plasma; oral, 10 mg once daily, day 1): 488 ng·h/mL
Cc1ccc([C@@H]2O[C@H](CO)[C@@H](O)[C@H](O)[C@H]2O)cc1Cc1ccc(-c2ccc(F)cc2)s1 — urinary calcium excretion change (Japanese type 2 diabetes patients; 100 mg, day 5, 24 h urine collection; baseline: baseline): -17.9 mg
Cc1cc(C(=O)NC(C)(C)COc2cccc3c2C(N)=NS(=O)(=O)N3)cc(C)n1 — dose-normalised AUC(0-last) (Sprague-Dawley rat, male, plasma; oral, 10 mg/kg): 1.81 ng·h/mL/mg/kg
COc1ncc(-c2nc3c(n2C(C)C)[C@H](c2ccc(Cl)cc2)N(c2cc(Cl)cn(C)c2=O)C3=O)c(OC)n1 — median half-life (human patients, plasma; oral, 12.5 mg, high-dose arm, cycle 1 day 1): 7.2 h
CCn1cc(C(=O)N2CCOCC2)c(=O)c2cc(NC3Cc4ccccc4C3)cnc21 — half-life (human, fed; oral suspension, 2000 mg single dose, arithmetic mean): 5.71 h
Cc1cc(NC2CCN(C(=O)OC3CCN(C(=O)/C=C/CN(C)C)C3)CC2)n2ncc(C(C)C)c2n1 (stereo not drawn) — patients with Dyspnea (patients with advanced solid tumours; dose not given, QD arm, grade 3 or higher): 7%
COc1cccc(N2CCN(C3=Nc4c(F)cccc4[C@H](CC(=O)O)N3c3cc(C(F)(F)F)ccc3OC)CC2)c1 — inhibition (THP-1; pyroptotic LDH release; 2 µM, 40 min, added: LPS then nigericin): 9.24%
CC(C)[C@@H](CN1CC[C@@](C)(c2cccc(O)c2)[C@@H](C)C1)NC(=O)[C@H]1Cc2ccc(O)cc2CN1 — AUCtotal (Sprague-Dawley rat, plasma; intraperitoneal, 10 mg/kg): 4420 ng·h/mL
O=C(CCCCCCC(=O)Nc1ccccc1)NO — dose-adjusted solubility (FaSSIF; literature solubility over dose): 0.62 mL⁻¹
CCCn1cc(C)c2c(=O)[nH]c(-c3cc(S(=O)(=O)N4CCN(CC)CC4)ccc3OCC)nc21 — serious adverse events (human): 0%
CN1CCN(c2cccc3c2CCN(C(=O)/C=C/c2c(-n4cnnn4)ccc(Cl)c2F)[C@@H]3C(=O)Nc2ccc(C(=O)O)cc2)C(=O)C1 — subjects with any adverse event (healthy human subjects; intravenous infusion, 9 mg/h, 5 days): 44.4%
Cc1ccsc1 — inhibition (THP-1; pyroptotic LDH release; 2 µM, 40 min, added: LPS then nigericin): -19%
CC(C)(C)c1ccc(O)c(CN(Cc2cc(C(C)(C)C)ccc2O)C2CCC(NC(N)=O)CC2)c1 (stereo not drawn) — recovery (mouse plasma; 5 ng/mL, time not given, freeze-thaw, 3 cycles, -20 °C): 99.7 ± 2.59%
CCc1cc(C(=O)NC)c2nccc(N3CCc4c(cc(Cn5ccnc5)cc4-c4cn(C)nc4C(F)(F)F)C3=O)c2c1 — body weight change (Sprague Dawley rat; oral, 50 mg/kg once daily, day 4, 7-day toxicology study; baseline: day 1): 9.7%
CC(C)(C(=O)N1CCOc2c(C#N)cncc2C1)C(F)F — subjects with adverse event (item: Insomnia; human; oral, 10 mg once daily, 14 days, multiple ascending dose): 0%
O=C(CCCCCCC(=O)Nc1ccc(CC[18F])cc1)NO — tissue uptake (athymic nu/nu male mice, LNCaP xenograft, large intestine; intravenous, 1 h): 4.8 ± 0.9 %ID/g
CN(CCCNC(=O)c1cccc(C(=O)O)c1)CCCNC(=O)c1cc(NC(=O)c2cc(NC(=O)c3cc(NC(=O)c4nc(NC(=O)C[C@@H](N)CNC(=O)c5cc(NC(=O)c6cc(NC(=O)c7cc(NC(=O)c8nccn8C)cn7C)cn6C)cn5C)cn4C)cn3C)cn2C)cn1C — critical aggregation concentration (dynamic light scattering; 0.1% DMSO in PBS; 25 °C): 4 µM
C[C@@H]1COCCN1c1cc(C2([S@](C)(=N)=O)CC2)nc(-c2cc[nH]c3nccc2-3)n1 — Rash incidence (Japanese advanced solid tumour patients; oral, 160 mg twice daily, CTCAE grade ≥3): 0%
COc1cc(C(=O)N2CCC3(CC2)CC(=O)c2c(cnn2C(C)C)C3)cc(-c2ccc(C(=O)O)cc2)n1 — percentage change from baseline (item: direct LDL cholesterol; human, fasting serum; 30 mg every 12 h, day 13, adjusted geometric mean; baseline: baseline): -6%
Cc1c(-c2ccc(N3CCc4cccc(C(=O)Nc5nc6ccccc6s5)c4C3)nc2C(=O)O)cnn1CC12CC3(C)CC(C)(C1)CC(OCCNCC[C@H](O)CO)(C3)C2 — plasma concentration (anaesthetized male beagle dog; iv infusion, 0.1 mg/kg/min, 5 min): 386 ng/mL
CC1(C)CC[C@]2(NC(=O)C(C)(F)F)CC[C@]3(C)[C@H](C(=O)C=C4[C@@]5(C)C=C(C#N)C(=O)C(C)(C)[C@@H]5CC[C@]43C)[C@@H]2C1 — trough plasma concentration (human, plasma; oral, 150 mg once daily, day 21 predose, median): 32 ng/mL
FC(F)(F)c1ccc(CNc2ccc(Cc3c[nH]c4ncc(Cl)cc34)cn2)cn1 — treatment-related adverse events (item: maculo-papular rash; human, advanced solid tumours, non-TGCT cohort; oral, 1000 mg/day, grade 3 or higher): 0%
COc1cc2c3c(n(CCCN4CCOCC4)c(=O)c2cc1OC)-c1cc2c(cc1C3=O)OCO2 — Vz (beagle dog, male, plasma; intravenous infusion, 100 mg/m^2, 1 h infusion, vehicle 1): 799 ± 115 L/m²
CNCc1ccc(-c2[nH]c3cc(F)cc4c3c2CCNC4=O)cc1 — neutropenia incidence (human patients; oral, 360 mg twice daily, all grades): 12.5%
O=C(O)CCC(=O)O.[2H]C([2H])([2H])Oc1cc(C)c2[nH]ccc2c1CN1CC[C@@H](C2CC2)C[C@H]1c1ccc(C(=O)O)cc1 — subjects with papular urticaria TEAE (multiple ascending dose; healthy Chinese subjects; 50 mg twice daily): 0%
N#C[C@@]1(c2ccc3c(N)ncnn23)O[C@H](CO)[C@@H](O)[C@H]1O — fraction unbound (human plasma; 1 µM): 0.818
NC1(C(=O)N[C@@H](CCO)c2ccc(Cl)cc2)CCN(c2nc[nH]c3nccc2-3)CC1 — incidence of Blindness (metastatic CRPC patients; 400 mg b.i.d., any grade, treatment-related, added: enzalutamide 160 mg daily): 14.3%
c1cc(CN2CCOCC2)cc(Nc2nccc(NCCc3cnc[nH]3)n2)c1 — effective permeability (PAMPA; PBS; 5 h, pH 7.4): 0.166 ×10⁻⁶ cm/s
CCc1nc(C(N)=O)c(Nc2ccc(N3CCC(N4CCN(C)CC4)CC3)c(OC)c2)nc1NC1CCOCC1 — AUC(0-24) (Japanese patients, plasma; oral, 20 mg, cycle 0 day -2, single dose, mean): 242 ng·h/mL
C[C@@H](Nc1cc(F)cc(F)c1)c1cc(C(=O)N(C)C)cc2c(=O)cc(N3CCOCC3)oc12 — share of patients with dose reduction (patients with advanced solid tumours; oral, 120 mg twice daily, monotherapy dose-finding, 2:5 schedule): 0%
CC(C)c1nc(N(C)S(C)(=O)=O)nc(-c2ccc(F)cc2)c1/C=C/[C@@H](O)C[C@@H](O)CC(=O)O — subjects with adverse event (item: general and administration site disorders; healthy men; oral, dose not given, 8 days, treatment-emergent, crossover trial): 9.1%
O=C(Nc1nc2cccc(-c3ccc(CN4CCS(=O)(=O)CC4)cc3)n2n1)C1CC1 — treatment-emergent adverse events (item: renal and urinary disorders; rheumatoid arthritis patients; oral, 30 mg once daily, 4 weeks, any relatedness): 0%
CC(=O)O[C@H]1C(=O)[C@@]2(C)[C@H]([C@H](OC(=O)c3ccccc3)[C@]3(O)C[C@H](OC(=O)[C@H](O)[C@@H](NC(=O)c4ccccc4)c4ccccc4)C(C)=C1C3(C)C)[C@]1(OC(C)=O)CO[C@@H]1C[C@@H]2O — adverse events, any (patients with advanced solid tumours; intravenous, dose not given, phase Ib, possibly related to compound): 24%
CC(C)C[C@H](NC(=O)CNC(=O)c1cc(Cl)ccc1Cl)B(O)O — treatment-emergent adverse events (item: Dizziness; human newly diagnosed multiple myeloma; oral, dose not given, maintenance, grade 3, onset cycle 17 or later): 0%
O=C(O)CSc1nnc(Br)n1-c1ccc(C2CC2)c2ccccc12 — body weight (KM mouse, chronic hyperuricaemia model; dose not given, day 12): 36 g and 32.2 g and 32 g and 27.6 g and 27.4 g and 32.4 g
Oc1ccc(/C=C/c2cc(O)cc(O)c2)cc1 — alkaline phosphatase (rat, azoxymethane-injected, blood at sacrifice; 100 mg/kg): 302 IU/L and 316 IU/L and 470 IU/L
CC(C(=O)NCC(=O)NCC(CNC(=O)CNC(=O)C(C)N1CCN(CC(=O)[O-])CCN(CC(=O)[O-])CCN(CC(=O)[O-])CC1)(CNC(=O)CNC(=O)C(C)N1CCN(CC(=O)[O-])CCN(CC(=O)[O-])CCN(CC(=O)[O-])CC1)CNC(=O)CNC(=O)C(C)N1CCN(CC(=O)[O-])CCN(CC(=O)[O-])CCN(CC(=O)[O-])CC1)N1CCN(CC(=O)[O-])CCN(CC(=O)[O-])CCN(CC(=O)[O-])CC1.[Gd+3].[Gd+3].[Gd+3].[Gd+3] (stereo not drawn) — cumulative urinary excretion (ICP-MS; cynomolgus monkey; dose not given, 2 d, mass balance group; baseline: dose): 99.5%
Cc1cc(-c2nccc3c2ccn3CC(=O)Nc2ccc(-c3cnccn3)cn2)ccn1 — terminal half-life (human, plasma; oral, 20 mg single dose, geometric mean): 10.8 h
C[C@@H]1CN(CC(=O)N2CC(C)(C)c3ncc(Cc4ccc(F)cc4)cc32)[C@@H](CN2CCOC[C@H]2C)CN1 — AUC(0-last) (cynomolgus monkey, male; oral, 5 mg/kg): 73 ± 9.7 ng·h/mL

Excerpt of the above:
CC(=O)O[C@H]1C(=O)[C@@]2(C)[C@H]([C@H](OC(=O)c3ccccc3)[C@]3(O)C[C@H](OC(=O)[C@H](O)[C@@H](NC(=O)c4ccccc4)c4ccccc4)C(C)=C1C3(C)C)[C@]1(OC(C)=O)CO[C@@H]1C[C@@H]2O — adverse events, any (patients with advanced solid tumours; intravenous, dose not given, phase Ib, possibly related to compound): 24%
CC(C)C[C@H](NC(=O)CNC(=O)c1cc(Cl)ccc1Cl)B(O)O — treatment-emergent adverse events (item: Dizziness; human newly diagnosed multiple myeloma; oral, dose not given, maintenance, grade 3, onset cycle 17 or later): 0%
O=C(O)CSc1nnc(Br)n1-c1ccc(C2CC2)c2ccccc12 — body weight (KM mouse, chronic hyperuricaemia model; dose not given, day 12): 36 g and 32.2 g and 32 g and 27.6 g and 27.4 g and 32.4 g
Oc1ccc(/C=C/c2cc(O)cc(O)c2)cc1 — alkaline phosphatase (rat, azoxymethane-injected, blood at sacrifice; 100 mg/kg): 302 IU/L and 316 IU/L and 470 IU/L
